Assay results pooled from the literature.
Lines come from different studies, so protocols differ. Values joined by “and” are separate records of one study, mostly repeats; a detail may differ. ± marks the error that the study gave.
Nuclear receptor subfamily 2 group C member 2 ligand-binding domain: Nuclear receptor subfamily 2 group C member 2, ligand-binding domain (Homo sapiens, UniProt P49116)
Chain of UniProt P49116 (whole entry, looked up): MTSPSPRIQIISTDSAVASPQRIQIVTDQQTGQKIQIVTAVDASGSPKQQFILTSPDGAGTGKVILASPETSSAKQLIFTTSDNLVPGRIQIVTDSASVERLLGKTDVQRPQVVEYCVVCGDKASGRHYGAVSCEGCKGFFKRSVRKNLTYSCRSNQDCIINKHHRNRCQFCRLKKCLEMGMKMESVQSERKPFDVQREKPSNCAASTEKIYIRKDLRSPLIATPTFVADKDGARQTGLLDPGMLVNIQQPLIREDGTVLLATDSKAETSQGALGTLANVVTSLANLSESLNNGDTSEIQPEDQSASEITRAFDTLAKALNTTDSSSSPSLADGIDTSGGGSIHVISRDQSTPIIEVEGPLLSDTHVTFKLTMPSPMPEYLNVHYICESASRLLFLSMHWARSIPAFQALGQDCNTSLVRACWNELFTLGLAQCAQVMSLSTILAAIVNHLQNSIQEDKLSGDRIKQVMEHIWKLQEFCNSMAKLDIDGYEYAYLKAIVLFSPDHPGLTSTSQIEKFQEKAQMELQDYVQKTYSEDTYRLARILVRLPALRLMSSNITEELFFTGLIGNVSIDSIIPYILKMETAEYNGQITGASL
Chain of UniProt P61981 (whole entry, looked up): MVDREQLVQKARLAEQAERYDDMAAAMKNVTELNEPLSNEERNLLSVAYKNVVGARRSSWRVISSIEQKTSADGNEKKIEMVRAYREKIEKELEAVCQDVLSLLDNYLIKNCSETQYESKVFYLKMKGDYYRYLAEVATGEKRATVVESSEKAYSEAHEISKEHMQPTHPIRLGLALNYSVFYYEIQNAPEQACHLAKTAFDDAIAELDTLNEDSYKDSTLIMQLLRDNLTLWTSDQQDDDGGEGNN
Chain of UniProt Q04206 (whole entry, looked up): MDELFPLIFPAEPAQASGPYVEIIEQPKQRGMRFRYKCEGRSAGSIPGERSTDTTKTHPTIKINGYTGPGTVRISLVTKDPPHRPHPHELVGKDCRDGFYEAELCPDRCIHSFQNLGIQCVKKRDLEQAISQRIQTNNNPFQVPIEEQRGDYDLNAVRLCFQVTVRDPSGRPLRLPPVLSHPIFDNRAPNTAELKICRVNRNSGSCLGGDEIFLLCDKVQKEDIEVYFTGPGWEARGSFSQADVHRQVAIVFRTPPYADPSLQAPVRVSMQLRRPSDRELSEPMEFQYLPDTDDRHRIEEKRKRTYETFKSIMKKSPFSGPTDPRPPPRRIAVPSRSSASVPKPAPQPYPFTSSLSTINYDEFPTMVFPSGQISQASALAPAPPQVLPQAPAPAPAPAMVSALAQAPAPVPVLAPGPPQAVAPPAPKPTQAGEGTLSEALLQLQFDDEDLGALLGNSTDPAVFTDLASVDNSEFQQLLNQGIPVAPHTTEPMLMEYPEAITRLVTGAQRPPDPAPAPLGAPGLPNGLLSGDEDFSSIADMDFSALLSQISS

| SMILES | target or system | test | test system | setting | scale | quantity | result |
| --- | --- | --- | --- | --- | --- | --- | --- |
| O=C(Nc1cc(OCCN2CCCC2)c2ccccc2n1)c1cc(Cl)cc(C(=O)Nc2cc(OCCN3CCCC3)c3ccccc3n2)n1 | c-kit2 G-quadruplex DNA | FRET melting |  | 1 µM, pH 7.4, together with: 60 mM potassium |  | ΔTm | 9.6 ± 0.7 K |
| Cc1ccc(C(=O)Nc2ccc(S(=O)(=O)O)c3cc(S(=O)(=O)O)cc(S(=O)(=O)O)c23)cc1NC(=O)c1cccc(NC(=O)Nc2cccc(C(=O)Nc3cc(C(=O)Nc4ccc(S(=O)(=O)O)c5cc(S(=O)(=O)O)cc(S(=O)(=O)O)c45)ccc3C)c2)c1 | OCI-Ly1 |  |  | 0.1 µM, 120 h |  | viability | 196% |
| COc1cc(C(=O)Nc2cc(OCCN3CCCC3)c3ccccc3n2)nc(C(=O)Nc2cc(OCCN3CCCC3)c3ccccc3n2)c1 | human telomeric G-quadruplex DNA | FRET melting |  | 1 µM, pH 7.4, together with: 60 mM potassium |  | ΔTm | 12.5 ± 1.1 K |
| O=Cc1ccc([N+](=O)[O-])c(OC(=O)c2ccccc2Cl)c1 | YWHAG/RELA, phospho-Ser45 p65 peptide (Homo sapiens, UniProt P61981+Q04206) | ternary complex formation, stabilizer, fluorescence anisotropy |  |  |  | EC50 | > 1000 µM |
| O=C(O)CCCc1ccccc1 | OCI-Ly1 |  |  | 0.5 µM, 120 h |  | viability | 150% |
| CC(Nc1nc(N2CCCC2)nc2ccccc12)c1ccccc1 (stereo not drawn) | importin α/β1 | cMyc nuclear import, high content imaging | HeLa Kyoto reporter | 3.17 µM, 2 h |  | cells with nuclear reporter | 89.7% and 99% |
| O=C(Nc1cc(OCCN2CCCC2)c2ccccc2n1)c1cc(OCc2ccc(F)cc2)cc(C(=O)Nc2cc(OCCN3CCCC3)c3ccccc3n2)n1 | c-kit2 G-quadruplex DNA | FRET melting |  | 1 µM, pH 7.4, together with: 60 mM potassium |  | ΔTm | 3.8 ± 0.4 K |
| NC(=O)C1CCCc2c1[nH]c1ccc(Cl)cc21 (racemic) | OCI-Ly1 |  |  | 0.5 µM, 120 h |  | viability | 159% |
| O=C(O)CNC(=O)Cc1ccccc1 |  |  | ventricular cardiomyocytes, C57BL/6 mouse | dose not given, 0.244 s |  | sarcomere length | 1.64 µm |
| Oc1ccccc1-c1n[nH]cc1-c1ccnc2ccccc12 | RAD53 (Candida albicans) | kinase binding, MIB/MS competition | Candida albicans lysate | 10 µM | reference: DMSO | log2 fold change | 2.43 |
| C[C@H]1C[C@H]2CSC(N)=N[C@@]2(c2nc(NC(=O)c3ccc(OC(F)F)cn3)cs2)CO1 |  | refers to: total Aβ | healthy adults, plasma | 400 mg single dose, 48 h post-dose | reference: placebo | percent change from baseline | -67.4% |
| O=C(/C=C/C=C/C=C/C1CCCCC1)NC1=C[C@@](O)(/C=C/C=C/C=C/C(=O)NC2=C(O)CCC2=O)[C@@H]2O[C@@H]2C1=O | ABC-1 | cell growth, CellTiter-Glo |  | 78 h |  | GI50 | 10.7 µM |
| CCn1cc(-c2cc(Cn3ccnc3)cc3c2CCN([C@H](c2cc(OC)ccn2)C2CC2)C3=O)c(C(F)(F)F)n1 | OVSAHO | cell growth, inhibitor |  | 120 h |  | EC50 | > 30 µM |
| Cn1cc(-c2ccc(-c3cncc(Cl)c3N3CCC4(CCNC4=O)CC3)cc2)cn1 | COLO 205 | gene expression, microarray, refers to: HIST1H4I mRNA |  | concentration not given, 2 h | reference: untreated cells | log2 fold change | -2.5 |
| NCCOc1cc(C(=O)Nc2cc(OCCN)c3ccccc3n2)nc(C(=O)Nc2cc(OCCN)c3ccccc3n2)c1 | human telomeric G-quadruplex DNA | FRET melting |  | 1 µM, pH 7.4, together with: 60 mM potassium |  | ΔTm | 34.8 ± 0.6 K |
| C[C@@H](NCCCc1cccc(C(F)(F)F)c1)c1cccc2ccccc12 | Nuclear receptor subfamily 2 group C member 2 ligand-binding domain | SPR imaging |  |  |  | Kd | 0.000985 µM |
| C#CCOc1cc(C(=O)Nc2cc(OCCCN)c3ccccc3n2)nc(C(=O)Nc2cc(OCCCN)c3ccccc3n2)c1 | c-kit2 G-quadruplex DNA | FRET melting |  | 1 µM, pH 7.4, together with: 60 mM potassium |  | ΔTm | 9.6 ± 0.4 K |

| SMILES | target or system | test | test system | setting | scale | quantity | result |
| --- | --- | --- | --- | --- | --- | --- | --- |
| C[C@]12O[C@H](C[C@]1(O)CO)n1c3ccccc3c3c4c(c5c6ccccc6n2c5c31)CNC4=O | OCI-Ly1 |  |  | 0.1 µM, 120 h |  | viability | 17.9% |
| COc1cc(C(=O)Nc2cc(OC)c3ccccc3n2)nc(C(=O)Nc2cc(OC)c3ccccc3n2)c1 | human telomeric G-quadruplex DNA | FRET melting |  | 1 µM, pH 7.4, together with: 60 mM potassium |  | ΔTm | 0.5 ± 0.4 K |
| CC(C)n1c(/C=C/C(O)CC(O)CC(=O)O)c(-c2ccc(F)cc2)c2ccccc21 (stereo not drawn) | COS-7 |  |  | 10 µM, 24 h, 0.1% DMSO, unit not given | reference: vehicle control | apoptotic cells | 2.39 ± 0.43 |
| O=C(C1CCCCC1)N1CC(=O)N2CCc3ccccc3C2C1 (stereo not drawn) | Nuclear receptor subfamily 2 group C member 2 ligand-binding domain | SPR imaging |  |  |  | Kd | 0.00244 µM |
| COC(=O)/C=C/C(=O)N(O)CCCCNCc1ccc(COC(=O)Nc2cccc3ccccc23)cc1 | OCI-Ly1 |  |  | 0.1 µM, 120 h |  | viability | 207% |
| c1coc(-c2n[nH]cc2-c2ccnc3ccccc23)c1 | STE11 (Candida albicans) | kinase binding, MIB/MS competition | Candida albicans lysate | 1 µM | reference: DMSO | log2 fold change | -0.15 |
| CCCOc1ccn2c(C(C)=O)cc(-c3ccccc3S(C)(=O)=O)c2c1 | OCI-Ly1 |  |  | 0.1 µM, 120 h |  | viability | 113% |
| COc1cnc2cccc(N3CCc4c(cc(Cn5ccnc5C)cc4-c4cn(C)nc4C(F)(F)F)C3=O)c2c1 | KMS-11 | cell growth, inhibitor |  | 120 h |  | EC50 | > 30 µM |
| CC(/C=C/C(=O)NO)=C\[C@@H](C)C(=O)c1ccc(N(C)C)cc1 | OCI-Ly1 |  |  | 0.5 µM, 120 h |  | viability | 2.65% |
| Cc1cc(OC(C)C)ccc1C(=O)C(C)(C)NC(=O)c1sccc1C | Botrytis cinerea | appressorium formation | B05.10 | 0.003 µg/mL |  | inhibition | 1.7 ± 1.2% |
| O=C(c1ccc(C(=O)N2CCC(N3CCCC3)CC2)c(Nc2ccccc2)c1)N1CCC(N2CCCC2)CC1 | OCI-Ly1 |  |  | 0.1 µM, 120 h |  | viability | 192% |
| CC(C)NCC(O)c1ccc(O)c(O)c1 (stereo not drawn) |  |  | ventricular cardiomyocytes, C57BL/6 mouse | dose not given, 0.864 s |  | sarcomere length | 1.5 µm |
| CN(C)CCOc1cc(NC(=O)c2cc(Cl)cc(C(=O)Nc3cc(OCCN(C)C)c4ccccc4n3)n2)nc2ccccc12 | c-kit2 G-quadruplex DNA | FRET melting |  | 1 µM, pH 7.4, together with: 60 mM potassium |  | ΔTm | 13.3 ± 0.4 K |
| CCn1cc(-c2cc(Cn3ccoc3=N)cc3c2CCN([C@@H](C)c2cc(OC)ccn2)C3=O)c(C(F)(F)F)n1 | HSC-4 | cell growth, inhibitor |  | 120 h |  | EC50 | > 30 µM |
| CN(C)CCCOc1cc(NC(=O)c2cccc(C(=O)Nc3cc(OCCCN(C)C)c4ccccc4n3)n2)nc2ccccc12 | c-kit2 G-quadruplex DNA | FRET melting |  | 1 µM, pH 7.4, together with: 60 mM potassium |  | ΔTm | 19.5 ± 1.2 K |
| NC(=O)c1cnc2[nH]ccc2c1N[C@@H]1[C@@H]2CC3C[C@H]1C[C@@](O)(C3)C2 |  | flow cytometry, refers to: CD8+ memory T cells | Japanese healthy subjects, peripheral blood | oral, 30 mg twice daily, day 4 |  | change from baseline | 0.52% |

A few entries again:
| SMILES | target or system | test | test system | setting | scale | quantity | result |
| --- | --- | --- | --- | --- | --- | --- | --- |
| O=Cc1ccc([N+](=O)[O-])c(OC(=O)c2ccccc2Cl)c1 | YWHAG/RELA, phospho-Ser45 p65 peptide (Homo sapiens, UniProt P61981+Q04206) | ternary complex formation, stabilizer, fluorescence anisotropy |  |  |  | EC50 | > 1000 µM |
| O=C(O)CCCc1ccccc1 | OCI-Ly1 |  |  | 0.5 µM, 120 h |  | viability | 150% |
| CC(Nc1nc(N2CCCC2)nc2ccccc12)c1ccccc1 (stereo not drawn) | importin α/β1 | cMyc nuclear import, high content imaging | HeLa Kyoto reporter | 3.17 µM, 2 h |  | cells with nuclear reporter | 89.7% and 99% |
| O=C(Nc1cc(OCCN2CCCC2)c2ccccc2n1)c1cc(OCc2ccc(F)cc2)cc(C(=O)Nc2cc(OCCN3CCCC3)c3ccccc3n2)n1 | c-kit2 G-quadruplex DNA | FRET melting |  | 1 µM, pH 7.4, together with: 60 mM potassium |  | ΔTm | 3.8 ± 0.4 K |
